Assay results gathered from unrelated publications.
Protocols differ between the studies behind these lines. Numbers after ± are the reported error.
Organism: Escherichia coli

| Substance | test | test system | conditions | MIC |
| --- | --- | --- | --- | --- |
| CC(C)C[C@H](NC(=O)[C@H](CCCCN)NC(=O)[C@H](Cc1c[nH]c2ccccc12)NC(=O)[C@H](CCCCN)NC(=O)[C@H](CC(C)C)NC(=O)[C@H](Cc1c[nH]c2ccccc12)NC(=O)[C@H](CC(C)C)NC(=O)[C@H](CCCCN)NC(=O)[C@H](CC(C)C)NC(=O)[C@H](CCCCN)NC(=O)[C@H](CCCCN)NC(=O)[C@@H](N)Cc1c[nH]c2ccccc12)C(=O)N[C@@H](Cc1c[nH]c2ccccc12)C(N)=O |  | ATCC 25922 | 1 h, 37 °C, dividing cells in LB | 50 to 100 µg/mL |
| CC[C@H](C)[C@H](NC(=O)[C@H](CCCNC(=N)N)NC(=O)CNC(=O)[C@H](CC(C)C)NC(=O)[C@H](Cc1ccccc1)NC(=O)[C@H](CCC(N)=O)NC(=O)[C@H](Cc1ccccc1)NC(=O)[C@@H](N)C(C)C)C(=O)N[C@H](C(=O)N[C@@H](Cc1c[nH]cn1)C(=O)N[C@@H](Cc1c[nH]cn1)C(=O)N[C@H](C(=O)NCC(=O)N[C@@H](CC(N)=O)C(=O)N[C@@H](Cc1ccccc1)C(=O)N[C@H](C(=O)N[C@@H](Cc1c[nH]cn1)C(=O)NCC(=O)N[C@@H](Cc1ccccc1)C(=O)N[C@@H](CO)C(=O)N[C@@H](Cc1c[nH]cn1)C(=O)N[C@H](C(=O)N[C@@H](Cc1ccccc1)C(=O)O)C(C)C)C(C)C)C(C)C)[C@@H](C)CC | broth microdilution | K12 | 37 °C | > 100 µM |
| CC[C@H](C)[C@H](NC(=O)CN)C(=O)N[C@@H](CCCCN)C(=O)N[C@@H](Cc1ccccc1)C(=O)N[C@@H](Cc1ccccc1)C(=O)N[C@@H](CC(C)C)C(=O)N[C@@H](CCCCN)C(=O)N[C@@H](CCCCN)C(=O)N[C@@H](CC(C)C)C(=O)N[C@@H](CCCCN)C(=O)N[C@@H](CCCCN)C(=O)N[C@@H](Cc1c[nH]cn1)C(N)=O | broth microdilution | ATCC 25922, LB medium | 16 to 20 h, 37 °C | 100 µg/mL |
| CC[C@H](C)[C@H](NC(=O)CN)C(=O)N[C@@H](Cc1c[nH]c2ccccc12)C(=O)N[C@@H](CC(=O)O)C(=O)N[C@H](C(=O)N[C@H](C(=O)N[C@@H](CCCCN)C(=O)N[C@@H](CO)C(=O)N[C@@H](CCSC)C(=O)NCC(=O)N[C@@H](CCCCN)C(=O)N[C@H](C(=O)N[C@@H](Cc1ccccc1)C(=O)N[C@@H](C)C(=O)NCC(=O)N[C@@H](CCCCN)C(=O)N[C@H](C(=O)N[C@@H](CC(C)C)C(=O)N[C@@H](CCC(N)=O)C(=O)N[C@@H](CC(N)=O)C(=O)N[C@@H](CC(C)C)C(N)=O)[C@@H](C)CC)C(C)C)[C@@H](C)CC)[C@@H](C)O | broth microdilution | K12 | 37 °C | 25 µM |
| CC(C)C[C@H](NC(=O)[C@H](CCCNC(=N)N)NC(=O)[C@H](CC(C)C)NC(=O)[C@@H](NC(=O)[C@H](C)NC(=O)[C@H](Cc1c[nH]cn1)NC(=O)[C@H](CC(C)C)NC(=O)[C@@H](NC(=O)[C@@H](N)CO)[C@@H](C)O)C(C)C)C(=O)N[C@@H](CCCNC(=N)N)C(=O)NCC(=O)NCC(=O)O |  | DH5α | 37 °C, ≥90% viability decrease | 5 µM |
| CC[C@H](C)[C@H](NC(=O)[C@H](CCCNC(=N)N)NC(=O)[C@@H](N)CCCNC(=N)N)C(=O)N[C@@H](CCCCN)C(=O)N1CCC[C@H]1C(=O)N[C@@H](CCCNC(=N)N)C(=O)N1CCC[C@H]1C(=O)N1CCC[C@H]1C(=O)N[C@@H](CCCNC(=N)N)C(=O)N[C@@H](CC(C)C)C(=O)N1CCC[C@H]1C(=O)N[C@@H](CCCNC(=N)N)C(=O)N1CCC[C@H]1C(=O)N[C@@H](CCCNC(=N)N)C(=O)N1CCC[C@H]1C(=O)N[C@@H](CCCCN)C(=O)O | broth microdilution | BW25113 parental, Mueller-Hinton broth | 18 h, 37 °C | 0.06 ± 0.014 µM |
| CC[C@H](C)[C@H](NC(=O)CN)C(=O)NCC(=O)N[C@@H](CCCCN)C(=O)N[C@@H](Cc1ccccc1)C(=O)N[C@@H](CC(C)C)C(=O)N[C@@H](Cc1c[nH]cn1)C(=O)N[C@@H](CO)C(=O)N[C@@H](C)C(=O)N[C@@H](CCCCN)C(=O)N[C@@H](CCCCN)C(=O)N[C@@H](Cc1ccccc1)C(=O)NCC(=O)N[C@@H](CCCCN)C(=O)N[C@@H](C)C(=O)N[C@@H](Cc1ccccc1)C(=O)N[C@H](C(=O)NCC(=O)N[C@@H](CCC(=O)O)C(=O)N[C@H](C(=O)N[C@@H](CCSC)C(=O)N[C@@H](CC(N)=O)C(=O)N[C@@H](CO)C(=O)O)[C@@H](C)CC)C(C)C | bacterial growth | DH5α | 37 °C | 0.01 µM |
| indolicidin |  | ATCC 25922 |  | 2.78 µM |
| CC(C)[C@H](N)C(=O)N[C@@H](CS)C(=O)N1CCC[C@H]1C(=O)N[C@@H](Cc1c[nH]cn1)C(=O)N[C@@H](CCCNC(=N)N)C(=O)N[C@@H](CS)C(=O)O | broth microdilution | MTCC 443 | 37 °C | 40 µg/mL |
| CC[C@H](C)[C@H](NC(=O)[C@@H]1CCCN1C(=O)[C@H](CCCCN)NC(=O)[C@@H]1CCCN1C(=O)[C@@H]1CCCN1C(=O)[C@@H](NC(=O)[C@@H]1CCCN1C(=O)[C@H](CCCNC(=N)N)NC(=O)[C@@H]1CCCN1C(=O)[C@H](CCCNC(=N)N)NC(=O)[C@H](Cc1ccc(O)cc1)NC(=O)[C@H](CO)NC(=O)CNC(=O)[C@H](CCCCN)NC(=O)[C@H](CC(=O)O)NC(=O)[C@@H](N)C(C)C)[C@@H](C)O)C(=O)N[C@@H](Cc1ccc(O)cc1)C(=O)N[C@@H](CC(N)=O)C(=O)N[C@@H](CCCNC(=N)N)C(=O)N[C@@H](CC(N)=O)C(=O)O | broth microdilution | BW25113, 20% M9 medium |  | 0.3 ± 0.07 µM |
| CC[C@H](C)[C@H](NC(=O)[C@H](Cc1c[nH]c2ccccc12)NC(=O)[C@@H](N)CCCNC(=N)N)C(=O)N[C@@H](CCCNC(=N)N)C(=O)N[C@@H](Cc1c[nH]c2ccccc12)C(=O)N[C@H](C(=O)N[C@@H](Cc1c[nH]c2ccccc12)C(=O)N[C@@H](CCCNC(=N)N)C(=O)N[C@@H](CCCCN)C(=O)N[C@@H](CCCCN)C(=O)N[C@@H](CC(C)C)C(=O)N[C@@H](CCCNC(=N)N)C(N)=O)C(C)C |  | ATCC 25922 | 1 h, 37 °C, non-dividing cells in PBS | ≥ 100 µg/mL |
| CC(C)C[C@H](NC(=O)[C@H](C)NC(=O)[C@H](CCCCN)NC(=O)[C@H](CC(C)C)NC(=O)[C@H](CC(C)C)NC(=O)[C@H](CCCCN)NC(=O)[C@H](CCCCN)NC(=O)[C@H](CC(C)C)NC(=O)[C@H](CC(C)C)NC(=O)[C@H](CCCCN)NC(=O)[C@H](CC(C)C)NC(=O)[C@H](CC(C)C)NC(=O)[C@@H](N)CCCCN)C(=O)NCC(N)=O |  | ATCC 25922, CAMHB | 18 h, 37 °C | 20 µM |
| CC[C@H](C)[C@H](NC(=O)[C@@H]1CCCN1C(=O)[C@H](CCCCN)NC(=O)[C@@H]1CCCN1C(=O)[C@@H]1CCCN1C(=O)[C@@H](NC(=O)[C@@H]1CCCN1C(=O)[C@H](CCCNC(=N)N)NC(=O)[C@@H]1CCCN1C(=O)[C@H](CCCCN)NC(=O)[C@H](Cc1ccc(O)cc1)NC(=O)[C@H](CO)NC(=O)CNC(=O)[C@H](CCCCN)NC(=O)[C@H](CC(=O)O)NC(=O)[C@@H](N)C(C)C)[C@@H](C)O)C(=O)N[C@@H](Cc1ccc(O)cc1)C(=O)N[C@@H](CC(N)=O)C(=O)N[C@@H](CCCNC(=N)N)C(=O)N[C@@H](CC(N)=O)C(=O)O | broth microdilution | BW25113 parental, Mueller-Hinton broth | 18 h, 37 °C | 0.075 ± 0.018 µM |
| CC1(C)SC2C(NC(=O)C(NC(=O)C3=C(O)C(Cc4ccco4)NC3=O)c3ccccc3)C(=O)N2C1C(=O)O (stereo not drawn) | broth microdilution | BW25113, Mueller-Hinton broth | with: 2,2'-bipyridyl 30 µg/mL | 3.13 µg/mL |
| CC[C@H](C)[C@H](NC(=O)[C@H](CCCNC(=N)N)NC(=O)[C@H](CCCNC(=N)N)NC(=O)[C@@H]1CCCN1C(=O)[C@@H]1CCCN1C(=O)[C@H](CCCNC(=N)N)NC(=O)[C@@H]1CCCN1C(=O)[C@H](CCCNC(=N)N)NC(=O)[C@@H]1CCCN1C(=O)[C@H](CC(C)C)NC(=O)[C@H](Cc1ccc(O)cc1)NC(=O)[C@@H]1CCCN1C(=O)[C@@H]1CCCN1C(=O)[C@H](CCCCN)NC(=O)[C@H](CC(=O)O)NC(=O)[C@@H](N)C(C)C)C(=O)N[C@@H](Cc1ccc(O)cc1)C(=O)N[C@@H](CC(N)=O)C(=O)N[C@@H](CCCNC(=N)N)C(N)=O | alamarBlue | SQ110 | overnight, 37 °C | 25 µM |
| CC[C@H](C)[C@H](NC(=O)[C@H](Cc1ccccc1)NC(=O)CN)C(=O)N[C@@H](CCCCN)C(=O)N[C@H](C(=O)N[C@H](C(=O)N[C@@H](CCCNC(=N)N)C(=O)N[C@@H](CCCCN)C(=O)N[C@@H](CC(C)C)C(=O)N[C@@H](CC(C)C)C(=O)N[C@@H](CCCNC(=N)N)C(=O)N[C@@H](CC(C)C)C(=O)N[C@@H](Cc1ccccc1)C(N)=O)C(C)C)[C@@H](C)CC | broth microdilution | ATCC 25922, LB medium | 16 to 20 h, 37 °C | 6.25 µg/mL |
| CC[C@H](C)[C@H](NC(=O)[C@@H]1CCCN1C(=O)[C@H](CCCNC(=N)N)NC(=O)[C@@H]1CCCN1C(=O)[C@@H]1CCCN1C(=O)[C@@H](NC(=O)[C@@H]1CCCN1C(=O)[C@H](CCCNC(=N)N)NC(=O)[C@@H]1CCCN1C(=O)[C@H](CC(C)C)NC(=O)[C@H](Cc1ccc(O)cc1)NC(=O)[C@H](CO)NC(=O)CNC(=O)[C@H](CCCCN)NC(=O)[C@H](CC(=O)O)NC(=O)[C@@H](N)C(C)C)[C@@H](C)O)C(=O)N[C@@H](Cc1ccc(O)cc1)C(=O)N[C@@H](CC(N)=O)C(=O)N[C@@H](CCCNC(=N)N)C(=O)N[C@@H](CC(N)=O)C(=O)O |  | JW0013 | 18 h, 37 °C, 12.5% Mueller-Hinton broth | 0.15 ± 0.034 µM |
| CC(C)C[C@H](NC(=O)CN)C(=O)N[C@@H](C)C(=O)N[C@@H](CC(=O)O)C(=O)N[C@@H](Cc1ccccc1)C(=O)N[C@@H](CC(C)C)C(=O)N[C@@H](CC(N)=O)C(=O)N[C@@H](CCCCN)C(=O)N[C@@H](C)C(=O)N[C@H](C(=O)NCC(=O)N[C@@H](CCCCN)C(=O)N[C@H](C(=O)N[C@H](C(=O)N[C@@H](CC(=O)O)C(=O)N[C@@H](Cc1ccccc1)C(=O)N[C@H](C(=O)N[C@@H](CCCCN)C(=O)N[C@@H](CO)C(N)=O)C(C)C)C(C)C)C(C)C)C(C)C | broth microdilution | K12 | 37 °C | > 100 µM |

A few entries again:
| Substance | test | test system | conditions | MIC |
| --- | --- | --- | --- | --- |
| CC[C@H](C)[C@H](NC(=O)CN)C(=O)N[C@@H](CCCCN)C(=O)N[C@@H](Cc1ccccc1)C(=O)N[C@@H](Cc1ccccc1)C(=O)N[C@@H](CC(C)C)C(=O)N[C@@H](CCCCN)C(=O)N[C@@H](CCCCN)C(=O)N[C@@H](CC(C)C)C(=O)N[C@@H](CCCCN)C(=O)N[C@@H](CCCCN)C(=O)N[C@@H](Cc1c[nH]cn1)C(N)=O | broth microdilution | ATCC 25922, LB medium | 16 to 20 h, 37 °C | 100 µg/mL |
| CC[C@H](C)[C@H](NC(=O)CN)C(=O)N[C@@H](Cc1c[nH]c2ccccc12)C(=O)N[C@@H](CC(=O)O)C(=O)N[C@H](C(=O)N[C@H](C(=O)N[C@@H](CCCCN)C(=O)N[C@@H](CO)C(=O)N[C@@H](CCSC)C(=O)NCC(=O)N[C@@H](CCCCN)C(=O)N[C@H](C(=O)N[C@@H](Cc1ccccc1)C(=O)N[C@@H](C)C(=O)NCC(=O)N[C@@H](CCCCN)C(=O)N[C@H](C(=O)N[C@@H](CC(C)C)C(=O)N[C@@H](CCC(N)=O)C(=O)N[C@@H](CC(N)=O)C(=O)N[C@@H](CC(C)C)C(N)=O)[C@@H](C)CC)C(C)C)[C@@H](C)CC)[C@@H](C)O | broth microdilution | K12 | 37 °C | 25 µM |
